Measurements of several laboratories.
Numbered parts are unrelated; each lists some results of a single study. Positions count from the first letter of the parent shown.

Block 1 — method: competition protein-binding microarray; form: double-stranded DNA, one strand shown; matrix: in vitro; concentration: 2 µM; with: Cbf1 competitor, 0.05 µM; direction: higher = stronger binding; constant ends, left off below: … GTCTTGATTCGCTTGACGCTGCTG
Target: Phosphate system positive regulatory protein PHO4, full length, GST-tagged (PHO4, Saccharomyces cerevisiae, UniProt P07270, residues 1-312)
Setting: whole 60-bp probe, lowest competitor level
Target sequence (chain): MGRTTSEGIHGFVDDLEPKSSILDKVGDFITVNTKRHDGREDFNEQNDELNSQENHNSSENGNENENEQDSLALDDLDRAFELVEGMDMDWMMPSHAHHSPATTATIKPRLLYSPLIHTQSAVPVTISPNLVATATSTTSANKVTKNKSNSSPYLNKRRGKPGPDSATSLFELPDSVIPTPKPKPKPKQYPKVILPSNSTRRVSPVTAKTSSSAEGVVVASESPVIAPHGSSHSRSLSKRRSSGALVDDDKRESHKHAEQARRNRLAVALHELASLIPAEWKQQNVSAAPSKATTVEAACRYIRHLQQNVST
Oligonucleotide	fluorescence intensity [a.u.]
TGCGCAACAACTTGTGTTGTGGGTGTATGTCTAGAA	5800
GGGCTTCAGAAAAAAGGCGTGCGATGTGTAGATGTA	9470
AAAGCGGTAATTTTTCACGTGGTCTCACATATCTAT	14000
TGCGCAACAACTTGTCCAGTGGGTGTATGTCTAGAA	4730
CTAACGAAGGTTTGGCGGGTGGGTGACAAGCCAAGT	4300
GTCGGCGGCGCAGCTCACGTGACCGCGCTCTGGGCC	11900
CTTTCCCGATCTTGACTCGTGGGTGTAGCACATTTG	11500
TTCATTGGTGCAGAAAGCGTGCTTTCCGGGTCCCAG	8050

Block 2 — target: CREBZF, bZIP domain (human); method: DHFR protein complementation; matrix: yeast; baseline: wild-type JUN-FOS pair; direction: higher = stronger binding
Setting: single substitutions, most at no-binding floor
Starting sequence: JUN, bZIP domain (human); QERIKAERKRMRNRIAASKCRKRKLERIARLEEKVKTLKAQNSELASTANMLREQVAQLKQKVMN; partner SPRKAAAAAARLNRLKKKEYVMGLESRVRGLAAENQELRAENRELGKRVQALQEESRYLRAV
Change	binding fitness
I28N	-1.53 natural log
S47E	-1.3 natural log
L38P	-1.5 natural log
E54W	-1.47 natural log
T37L	-1.35 natural log
L45H	-1.46 natural log
A29I	-1.22 natural log
V35L	-1.45 natural log

Block 3 — target: OGT, full length, His-tagged (human); method: phage display, sequencing; matrix: in vitro; concentration: 1 µg OGT; baseline: input library; direction: higher = stronger binding
Setting: single substitutions, 15-mer displayed peptide, unchanged parent 16.7
Starting sequence: peptide; NSEYMPQYQIIFAHQ; partner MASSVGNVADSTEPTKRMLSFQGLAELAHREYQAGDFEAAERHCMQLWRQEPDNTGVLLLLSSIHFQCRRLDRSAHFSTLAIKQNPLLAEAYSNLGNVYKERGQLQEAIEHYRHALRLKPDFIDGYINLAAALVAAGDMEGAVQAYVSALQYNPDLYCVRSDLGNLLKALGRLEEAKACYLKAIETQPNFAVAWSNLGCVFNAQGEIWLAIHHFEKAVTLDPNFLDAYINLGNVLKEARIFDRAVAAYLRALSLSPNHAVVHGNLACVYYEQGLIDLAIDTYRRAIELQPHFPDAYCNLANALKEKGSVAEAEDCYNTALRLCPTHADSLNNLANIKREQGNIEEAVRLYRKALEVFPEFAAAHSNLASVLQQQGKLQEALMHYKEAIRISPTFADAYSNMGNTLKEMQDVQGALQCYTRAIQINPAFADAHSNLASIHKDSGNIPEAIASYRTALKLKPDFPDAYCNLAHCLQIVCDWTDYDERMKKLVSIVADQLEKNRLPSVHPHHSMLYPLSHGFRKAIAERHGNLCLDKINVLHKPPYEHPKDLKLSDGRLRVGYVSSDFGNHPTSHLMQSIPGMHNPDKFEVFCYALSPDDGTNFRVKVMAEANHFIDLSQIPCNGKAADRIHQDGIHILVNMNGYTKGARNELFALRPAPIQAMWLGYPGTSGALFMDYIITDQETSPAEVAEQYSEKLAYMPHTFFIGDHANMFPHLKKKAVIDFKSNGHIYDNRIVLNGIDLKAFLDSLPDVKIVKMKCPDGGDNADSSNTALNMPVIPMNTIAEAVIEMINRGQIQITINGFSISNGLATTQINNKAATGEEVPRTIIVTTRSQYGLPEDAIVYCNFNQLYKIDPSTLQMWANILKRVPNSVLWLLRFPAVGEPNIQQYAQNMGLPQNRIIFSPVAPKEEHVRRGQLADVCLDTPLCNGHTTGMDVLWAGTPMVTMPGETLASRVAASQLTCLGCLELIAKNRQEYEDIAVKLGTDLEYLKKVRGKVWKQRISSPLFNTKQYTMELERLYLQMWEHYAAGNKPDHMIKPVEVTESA
Change	fold enrichment [fold]
E3K	17.6
E3H	9.31
M5Y	8.58
Q9T	7.02
N1V	14.5
H14F	5.86
S2P	21.1
Q7S	8.15

Mixed results
Starting sequence: viral docking peptide; KKAKRRLFTISDS; partner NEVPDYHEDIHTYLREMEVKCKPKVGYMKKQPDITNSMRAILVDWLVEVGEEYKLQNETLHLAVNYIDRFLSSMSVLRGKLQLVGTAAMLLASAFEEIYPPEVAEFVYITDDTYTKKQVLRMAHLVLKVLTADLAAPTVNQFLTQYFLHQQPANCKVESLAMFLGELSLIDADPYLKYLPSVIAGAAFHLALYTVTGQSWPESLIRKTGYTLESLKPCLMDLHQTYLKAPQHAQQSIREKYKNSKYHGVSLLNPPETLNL
Change	target	test	system	setting	how to read	endpoint	result
KKAKKRLLTISDS [R5K F8L]	CCNA2, cyclin fold, Cln2 fusion (human)	yeast growth competition, sequencing	yeast	strong parent motif	baseline: not given, higher = stronger binding	normalised enrichment score	0.94

Repeated from above (block 1):
Oligonucleotide	fluorescence intensity [a.u.]
TGCGCAACAACTTGTCCAGTGGGTGTATGTCTAGAA	4730
CTAACGAAGGTTTGGCGGGTGGGTGACAAGCCAAGT	4300
GTCGGCGGCGCAGCTCACGTGACCGCGCTCTGGGCC	11900
